{"data": "Measured values of several laboratories", "YES1": "Tyrosine-protein kinase Yes (YES1, Homo sapiens, UniProt P07947)", "note": "± marks the error that the study gave.", "chain of UniProt P07947 (whole entry, unmodified, looked up)": "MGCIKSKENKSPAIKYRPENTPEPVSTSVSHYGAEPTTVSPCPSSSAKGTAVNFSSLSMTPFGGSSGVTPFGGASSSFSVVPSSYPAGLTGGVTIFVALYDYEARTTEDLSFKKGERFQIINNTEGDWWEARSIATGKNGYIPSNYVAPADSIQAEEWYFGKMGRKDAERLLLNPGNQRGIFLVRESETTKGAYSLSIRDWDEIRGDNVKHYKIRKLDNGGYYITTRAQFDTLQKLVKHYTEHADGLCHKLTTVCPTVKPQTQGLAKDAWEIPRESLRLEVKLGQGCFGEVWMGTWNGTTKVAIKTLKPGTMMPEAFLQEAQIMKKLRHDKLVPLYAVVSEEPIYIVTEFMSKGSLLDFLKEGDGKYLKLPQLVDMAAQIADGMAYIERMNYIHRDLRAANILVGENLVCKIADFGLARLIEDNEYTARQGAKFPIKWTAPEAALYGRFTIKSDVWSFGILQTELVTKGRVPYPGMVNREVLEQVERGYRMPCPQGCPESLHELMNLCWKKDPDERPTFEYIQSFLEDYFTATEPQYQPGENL"}
{"Structure (SMILES)": "Cc1cc(Nc2cc(N3CCN(C)CC3)nc(Sc3ccc(NC(=O)C4CC4)cc3)n2)[nH]n1", "target": "YES1", "assay": "kinase activity, KinaseProfiler", "conditions": "0.03 µM, species human", "how to read": "baseline: control", "quantity": "remaining activity", "result": "62%"}
{"Structure (SMILES)": "CC#CC(=O)N1CCC[C@H]1c1nc(-c2ccc(C(=O)Nc3ccccn3)cc2)c2c(N)nccn12", "target": "YES1", "assay": "kinase activity, inhibitor, HotSpot radiometric", "conditions": "100 nM, added: ATP 10 µM", "quantity": "remaining activity", "result": "88.55 ± 0.5%"}
{"Structure (SMILES)": "O=C1NC(=O)/C(=C/c2ccc(-c3ccc(F)cc3O)o2)S1", "target": "YES1", "assay": "enzyme activity", "conditions": "10 µM", "quantity": "remaining activity", "result": "36%"}
{"Structure (SMILES)": "Cc1nc(Nc2ncc(C(=O)Nc3c(C)cccc3Cl)s2)cc(N2CC[C@H](O)C2)n1", "target": "YES1", "conditions": "0.001 µM", "quantity": "inhibition", "result": "100%"}
{"Structure (SMILES)": "COc1ccc(F)cc1C(=O)NCc1ccc(-c2nn([C@@H](C)C(F)(F)F)c(N)c2C(N)=O)cc1", "target": "YES1", "assay": "kinase activity, inhibitor, HotSpot radiometric", "conditions": "100 nM, added: ATP 10 µM", "quantity": "remaining activity", "result": "47.6 ± 0.2%"}
{"Structure (SMILES)": "C=CC(=O)N1CCC[C@@H](n2nc(-c3ccc(Oc4ccccc4)cc3)c3c(N)ncnc32)C1", "target": "YES1", "conditions": "0.1 µM", "quantity": "remaining activity", "result": "99.3%"}
{"Structure (SMILES)": "COc1cc(-c2cncc3c2CN(C)Cc2cc(N4CCNCC4)ccc2-3)cc(OC)c1OC", "target": "YES1", "assay": "kinase activity", "conditions": "1 µM, human enzyme, added: ATP 10 µM", "how to read": "baseline: DMSO control", "quantity": "remaining activity", "result": "64%"}
{"Structure (SMILES)": "[2H]c1cc(C)c(NC(=O)c2cnc(Nc3cc(N4CCCCC4)nc(C)n3)s2)c(Cl)c1", "target": "Tyrosine-protein kinase Yes (YES1, Homo sapiens, UniProt P07947, T348I)", "conditions": "0.01 µM", "quantity": "inhibition", "result": "< 30%"}
{"Structure (SMILES)": "C=CC(=O)N1CCC[C@@H](n2nc(-c3ccc(Oc4ccccc4)cc3)c3c(N)ncnc32)C1", "target": "YES1", "assay": "kinase activity, inhibitor, HotSpot radiometric", "conditions": "100 nM, added: ATP 10 µM", "quantity": "remaining activity", "result": "6.6 ± 0.9%"}
{"note": "Some of these lines once more:"}
{"Structure (SMILES)": "Cc1cc(Nc2cc(N3CCN(C)CC3)nc(Sc3ccc(NC(=O)C4CC4)cc3)n2)[nH]n1", "target": "YES1", "assay": "kinase activity, KinaseProfiler", "conditions": "0.03 µM, species human", "how to read": "baseline: control", "quantity": "remaining activity", "result": "62%"}
{"Structure (SMILES)": "CC#CC(=O)N1CCC[C@H]1c1nc(-c2ccc(C(=O)Nc3ccccn3)cc2)c2c(N)nccn12", "target": "YES1", "assay": "kinase activity, inhibitor, HotSpot radiometric", "conditions": "100 nM, added: ATP 10 µM", "quantity": "remaining activity", "result": "88.55 ± 0.5%"}
